Results from different studies.
A part holds a random share of what one study measured.
Chain of UniProt Q9UK32 (whole entry, looked up): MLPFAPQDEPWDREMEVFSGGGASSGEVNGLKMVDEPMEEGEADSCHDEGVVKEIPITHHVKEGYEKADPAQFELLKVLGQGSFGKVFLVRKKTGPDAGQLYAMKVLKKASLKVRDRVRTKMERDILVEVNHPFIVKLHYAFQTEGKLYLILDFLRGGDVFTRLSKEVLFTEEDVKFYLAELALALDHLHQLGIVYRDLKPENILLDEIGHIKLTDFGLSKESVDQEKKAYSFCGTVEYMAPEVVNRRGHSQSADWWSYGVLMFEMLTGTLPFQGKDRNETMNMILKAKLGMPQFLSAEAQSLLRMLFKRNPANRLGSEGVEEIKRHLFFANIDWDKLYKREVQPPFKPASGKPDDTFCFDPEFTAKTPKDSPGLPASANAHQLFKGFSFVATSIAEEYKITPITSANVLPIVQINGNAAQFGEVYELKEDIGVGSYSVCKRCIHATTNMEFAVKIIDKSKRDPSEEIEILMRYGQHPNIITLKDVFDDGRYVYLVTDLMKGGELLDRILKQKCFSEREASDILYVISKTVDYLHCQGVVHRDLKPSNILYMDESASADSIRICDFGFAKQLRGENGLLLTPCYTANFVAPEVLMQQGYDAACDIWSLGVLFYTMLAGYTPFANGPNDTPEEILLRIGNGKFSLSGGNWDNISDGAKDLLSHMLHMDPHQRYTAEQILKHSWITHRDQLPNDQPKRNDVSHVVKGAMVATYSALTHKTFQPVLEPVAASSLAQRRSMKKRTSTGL
Chain of UniProt P08631 (whole entry, looked up): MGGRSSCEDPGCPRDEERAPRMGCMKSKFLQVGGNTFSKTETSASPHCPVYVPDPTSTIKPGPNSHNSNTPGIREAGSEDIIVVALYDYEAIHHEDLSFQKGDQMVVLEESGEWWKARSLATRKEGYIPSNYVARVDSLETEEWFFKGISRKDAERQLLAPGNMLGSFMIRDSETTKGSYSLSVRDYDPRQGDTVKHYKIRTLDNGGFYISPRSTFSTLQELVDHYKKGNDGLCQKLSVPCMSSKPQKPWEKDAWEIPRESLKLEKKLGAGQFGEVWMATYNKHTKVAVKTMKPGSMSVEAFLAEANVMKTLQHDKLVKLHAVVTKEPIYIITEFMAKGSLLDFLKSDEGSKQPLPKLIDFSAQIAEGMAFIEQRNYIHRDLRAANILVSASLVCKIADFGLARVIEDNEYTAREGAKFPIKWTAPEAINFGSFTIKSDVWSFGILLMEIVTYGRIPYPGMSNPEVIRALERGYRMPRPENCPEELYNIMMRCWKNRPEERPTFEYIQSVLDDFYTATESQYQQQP
Chain of UniProt Q14680 (whole entry, looked up): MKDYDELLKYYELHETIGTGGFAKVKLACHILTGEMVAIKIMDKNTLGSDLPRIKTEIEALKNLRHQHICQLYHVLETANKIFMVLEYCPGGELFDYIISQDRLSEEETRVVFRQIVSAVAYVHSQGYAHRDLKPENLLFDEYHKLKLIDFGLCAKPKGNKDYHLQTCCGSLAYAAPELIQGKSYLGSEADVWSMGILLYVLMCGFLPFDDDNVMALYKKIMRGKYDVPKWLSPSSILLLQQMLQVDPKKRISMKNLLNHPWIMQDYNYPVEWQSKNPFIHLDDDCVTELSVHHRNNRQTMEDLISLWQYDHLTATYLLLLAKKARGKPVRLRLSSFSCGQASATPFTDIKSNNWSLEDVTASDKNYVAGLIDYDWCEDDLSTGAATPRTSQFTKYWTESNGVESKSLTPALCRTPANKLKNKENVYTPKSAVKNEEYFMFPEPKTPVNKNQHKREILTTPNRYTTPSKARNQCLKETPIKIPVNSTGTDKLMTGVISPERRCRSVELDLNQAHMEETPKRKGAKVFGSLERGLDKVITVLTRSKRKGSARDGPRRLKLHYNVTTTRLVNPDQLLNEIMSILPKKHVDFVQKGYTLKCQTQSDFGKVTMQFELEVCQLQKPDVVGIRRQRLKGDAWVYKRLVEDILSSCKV

Study 1
Target: UBE2Q1 UBC core domain (UniProt Q7Z7E8)
Technique: yeast two-hybrid
Sample: yeast
Notes: mostly zero background
Relative to: not given
Reading: higher = stronger interaction
B1: VPS41 RING domain (UniProt P49754); chain KGVLVDEENICESCLSPILPSDAAKPFSVVVFHCRHMFHKECLPMPSMNSAAQFCNICSAKNRGPGSAI
B2: TRIM5 RING domain (UniProt Q9C035); chain ILVNVKEEVTCPICLELLTQPLSLDCGHSFCQACLTANHKKSMLDKGESSCPVCRISYQPENIRP
B3: TRIM4 RING domain (UniProt Q9C037); chain EAEDIQEELTCPICLDYFQDPVSIECGHNFCRGCLHRNWAPGGGPFPCPECRHPSAPAALRP
B4: RC3H1 RING domain (UniProt Q5TC82); chain QAPQWTDFLSCPICTQTFDETIRKPISLGCGHTVCKMCLNKLHRKACPFDQTTINTDIELL
B5: SH3RF2 RING domain (UniProt Q8TEC5); chain DDLTLLDLLECPVCFEKLDVTAKVLPCQHTFCKPCLQRVFKAHKELRCPECRTPVFSNIEAL
B6: RNF208 RING domain (UniProt Q9H0X6); chain SSAAAGEPLECPTCGHSYNVTQRRPRVLSCLHSVCEQCLQILYESCPKYKFISCPTCRRETVLFTDYG
Residues (chain): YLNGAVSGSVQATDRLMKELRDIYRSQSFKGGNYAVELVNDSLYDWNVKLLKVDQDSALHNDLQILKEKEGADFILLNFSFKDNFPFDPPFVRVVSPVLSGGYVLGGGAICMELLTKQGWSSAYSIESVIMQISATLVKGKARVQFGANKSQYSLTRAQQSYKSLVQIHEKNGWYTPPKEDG
Sequence | lacZ reporter activity
B1 (VPS41 RING domain) | 0
B2 (TRIM5 RING domain) | 0
ASLPTSEEDLCPICYAHPISAVFQPCGHKSCKACINQHLMNNKDCFFCKTTIVSVEDWE (RNF123 RING domain (UniProt Q5XPI4)) | 0
B3 (TRIM4 RING domain) | 0
MPIRALCTICSDFFDHSRDVAAIHCGHTFHLQCLIQWFETAPSRTCPQCRIQVGKRTIIN (TRAIP RING domain (UniProt Q9BWF2)) | 0
B4 (RC3H1 RING domain) | 0
B5 (SH3RF2 RING domain) | 0
B6 (RNF208 RING domain) | 0

Study 2
Target: Prothrombin, mature alpha-thrombin (F2, Homo sapiens, UniProt P00734)
Technique: aptamer microarray, sandwich
Molecule type: DNA with 2'F-ANA
Sample: in vitro
Concentration: 200 nM
Notes: whole 15-mer aptamer, many near background
Added: Cy3 exosite-II aptamer, 400 nM
Reading: higher = stronger binding
Oligonucleotide: GGTTGGTGTGGTTGG
Modification | mean fluorescence intensity
2'F-ANA at 4 7 9 11 12 13 14 15 | 92.7 a.u.
2'F-ANA at 1 5 6 11 13 15 | 68.7 a.u.
2'F-ANA at 1 2 4 6 7 8 9 11 13 14 | 68.4 a.u.
2'F-ANA at 2 5 7 8 9 10 11 12 13 14 15 | 55 a.u.
2'F-ANA at 5 6 9 10 12 | 51.1 a.u.
2'F-ANA at 3 6 10 13 14 15 | 300 a.u.
2'F-ANA at 2 3 4 5 6 8 10 11 12 14 | 52.9 a.u.
2'F-ANA at 5 6 11 12 14 15 | 56.7 a.u.

Study 3
SMILES: CS(=O)(=O)NCC[C@H](NC(=O)c1cncc2c1cnn2-c1ccc(F)cc1)c1ccnc(S(C)(=O)=O)c1
Observed: cell-free assay
Technique: competition with immobilised ligand
Concentration: 1 µM
target | remaining binding [%]
HCK (Homo sapiens, UniProt P08631) | 100
Ribosomal protein S6 kinase alpha-6, C-terminal kinase domain (RPS6KA6, Homo sapiens, UniProt Q9UK32) | 100
MELK (Homo sapiens, UniProt Q14680) | 99

Study 4
Target: Tyrosine-protein kinase ZAP-70 (ZAP70, Homo sapiens, UniProt P43403)
Observed: enzyme activity
Mode: inhibitor
Concentration: 0.5 µM
Relative to: control
Construct (P43403 1-619): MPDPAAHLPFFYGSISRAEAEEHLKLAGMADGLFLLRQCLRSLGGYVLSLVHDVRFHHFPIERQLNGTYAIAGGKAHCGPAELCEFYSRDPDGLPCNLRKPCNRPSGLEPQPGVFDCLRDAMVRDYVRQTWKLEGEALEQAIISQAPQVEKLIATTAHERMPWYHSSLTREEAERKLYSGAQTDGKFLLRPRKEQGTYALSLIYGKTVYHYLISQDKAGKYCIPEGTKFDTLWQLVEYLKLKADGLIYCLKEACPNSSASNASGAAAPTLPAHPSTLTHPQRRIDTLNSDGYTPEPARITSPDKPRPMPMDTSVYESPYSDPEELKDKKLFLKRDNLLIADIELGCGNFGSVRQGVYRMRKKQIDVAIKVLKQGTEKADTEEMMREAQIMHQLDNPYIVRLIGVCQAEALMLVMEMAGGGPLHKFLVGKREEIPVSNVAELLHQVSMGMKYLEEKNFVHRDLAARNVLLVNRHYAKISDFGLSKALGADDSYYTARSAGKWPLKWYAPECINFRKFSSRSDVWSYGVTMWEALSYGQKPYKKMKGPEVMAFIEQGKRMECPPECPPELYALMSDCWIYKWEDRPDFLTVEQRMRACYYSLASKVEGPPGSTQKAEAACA
Structure (SMILES) | remaining activity
CCOC(=O)c1c(C)[nH]c(/C=C2\C(=O)Nc3ccccc32)c1C | 98.8%
O=C(Nc1cccc(Nc2cc(Nc3cccc(C(F)(F)F)c3)ncn2)c1)C1CC1 | 93%
O=S(=O)(c1cccc2cnccc12)N1CCCNCC1 | 108%
Cc1ccc(NC(=O)c2ccc(CN3CCN(C)CC3)cc2)cc1Nc1nc(-c2cccnc2)cs1 | 112%
O=C(O)c1ccc2c3c1cccc3c(=O)n1c3ccccc3nc21 | 119%
CN(C)c1ccc(C=C2C(=O)Nc3ccccc32)cc1 | 89.9%
NCCNc1ncc(C(N)=O)c(Nc2cccc(C(F)(F)F)c2)n1 | 95.3%
O=c1c2ccccc2[nH]c(=S)n1CCN1CCC(=C(c2ccc(F)cc2)c2ccc(F)cc2)CC1 | 98%
COc1cc2ncnc(Nc3ccc(Oc4ccccc4)cc3)c2cc1OC | 97%
Oc1ccc(-c2nc(-c3ccncc3)c(-c3ccc(F)cc3)[nH]2)cc1 | 100%
N#CC(C#N)=C(N)/C(C#N)=C/c1ccc(O)cc1 | 96%
Cc1cccc(-c2[nH]c(C(C)(C)C)nc2-c2ccc3c(c2)OCO3)n1 | 106%
O=C1NC(=O)C(c2cn(CCCO)c3ncccc23)=C1c1cnccn1 | 87.8%
Nc1[nH]nc2nc3ccccc3nc12 | 102%
OCC(O)CCON=C1C(c2c(O)[nH]c3ccccc23)=Nc2ccccc21 (stereo not drawn) | 97.8%
Cc1nc(-c2ccccc2)c(-c2ccncc2)o1 | 98.8%
Cn1c2ccccc2c2c3c(c4c5ccccc5n(CCC#N)c4c21)CNC3=O | 77.7%
Nc1ncnc2n[nH]c(Nc3ccc(F)cc3)c12 | 95.2%
C#Cc1cccc(Nc2ncnc3cc(OCCOC)c(OCCOC)cc23)c1 | 94.4%
CC(C)[C@H](CO)Nc1nc(Nc2cc(N)cc(Cl)c2)c2ncn(C(C)C)c2n1 | 102%

Further values, each from its own experiment
Concentration: 100 µM
SMILES | cell line | time | viability [%]
CC(C(=O)O)c1ccc2c(c1)Cc1cccnc1O2 (stereo not drawn) | A-375 | 18 h | 97.8
C=CC(=O)Nc1cccc(Nc2nc(Nc3ccc(N4CCN(C(C)=O)CC4)cc3OC)ncc2C(F)(F)F)c1 | HaCaT | 36 h | 5.96
CC1=C(/C=C/C(C)=C/C=C/C(C)=C/C=C/C=C(C)/C=C/C=C(C)/C=C/C2=C(C)CCCC2(C)C)C(C)(C)CCC1 | A-375 | 18 h | 65.1

For quick reference, copied from above (further values, each from its own experiment):
SMILES | cell line | time | viability [%]
CC1=C(/C=C/C(C)=C/C=C/C(C)=C/C=C/C=C(C)/C=C/C=C(C)/C=C/C2=C(C)CCCC2(C)C)C(C)(C)CCC1 | A-375 | 18 h | 65.1
CC(C(=O)O)c1ccc2c(c1)Cc1cccnc1O2 (stereo not drawn) | A-375 | 18 h | 97.8
C=CC(=O)Nc1cccc(Nc2nc(Nc3ccc(N4CCN(C(C)=O)CC4)cc3OC)ncc2C(F)(F)F)c1 | HaCaT | 36 h | 5.96
